# Published values from different studies.
# Numbered parts are unrelated; each lists some results of a single study. Changes are numbered by the printed parent chain.

# Block 1
# Target: CCNF, cyclin fold, Cln2 fusion (human)
# Technique: yeast growth competition, sequencing
# Matrix: yeast
# Notes: weak parent motif
# Relative to: not given
# Direction: higher = stronger binding
# Starting sequence: MASTL docking peptide (human); PMIAKNLMCELDE
Substitution,normalised enrichment score
PDIAKNLMCELDE [M2D],-0.0449
PMIAKNLMCEEDE [L11E],-0.138
PMIAKNKMCELDE [L7K],0.169
PMIAKNLMVELDE [C9V],0.117
PMIAKELMCELDE [N6E],-0.608
PMIAKNLMCEHDE [L11H],-0.24
PMIAKNLMQELDE [C9Q],0.104
PMIFKNLMCELDE [A4F],-0.203
PMIAENLMCELDE [K5E],-0.439
PFIAKNLMCELDE [M2F],0.138
PRIAKNLMCELDE [M2R],0.272
PQIAKNLMCELDE [M2Q],0.15
PMIAKNLMCELNE [D12N],-0.0168
PHIAKNLMCELDE [M2H],0.0573
PMIQKNLMCELDE [A4Q],-0.488
PVIAKNLMCELDE [M2V],-0.0158
PMIAKNLMCTLDE [E10T],-0.23
PMIAKNLGCELDE [M8G],-0.135
PMHAKNLMCELDE [I3H],-0.243
PMIAKNHMCELDE [L7H],-0.884
PMIAKNLMCSLDE [E10S],0.132
PMIAKNLMPELDE [C9P],0.479
PMIAKQLMCELDE [N6Q],0.213
PMIAKNLMEELDE [C9E],-0.458
PMWAKNLMCELDE [I3W],-0.0414

# Block 2
# Target: ABI1, truncated, D143A, DHFR fusion (Arabidopsis thaliana)
# Technique: DHFR PCA, deep sequencing
# Matrix: yeast
# Notes: methotrexate growth selection, single substitutions
# Together with: (+)-ABA 0.0091 µM
# Relative to: wild-type fitted maximum
# Direction: higher = stronger binding
# Starting sequence: PYL1, truncated, DHFR fusion (Arabidopsis thaliana); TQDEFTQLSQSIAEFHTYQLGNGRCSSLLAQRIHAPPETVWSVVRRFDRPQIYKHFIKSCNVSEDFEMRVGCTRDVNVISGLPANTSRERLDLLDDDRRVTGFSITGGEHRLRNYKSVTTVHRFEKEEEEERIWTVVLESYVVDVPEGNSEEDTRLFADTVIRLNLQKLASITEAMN; partner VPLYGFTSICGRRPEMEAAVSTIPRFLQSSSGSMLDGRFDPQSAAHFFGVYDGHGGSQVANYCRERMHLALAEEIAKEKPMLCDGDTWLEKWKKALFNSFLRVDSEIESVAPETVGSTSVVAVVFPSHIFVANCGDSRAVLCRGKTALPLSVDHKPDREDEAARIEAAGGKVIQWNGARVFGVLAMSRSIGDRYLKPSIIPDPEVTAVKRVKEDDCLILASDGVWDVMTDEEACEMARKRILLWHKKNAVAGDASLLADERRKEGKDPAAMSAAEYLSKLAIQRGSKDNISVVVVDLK
Substitution,relative binding score [%]
N177A,39.8
V121I,6.49
M176E,0.645
Q7L,14.6
V121H,-1.67
P83A,25.3
L166M,-2.47
V78Q,3.35

# Block 3
# Target: RNA binding protein fox-1 homolog 2, RRM domain, GST-SBP tag (RBFOX2, Homo sapiens, UniProt O43251-10, residues 100-194)
# Technique: RNA Bind-n-Seq
# Form: RNA
# Matrix: in vitro
# Tested at: 365 nM
# Notes: natural RNA segment, single round, ends assumed
# Relative to: no-protein control
# Direction: higher = stronger binding
# Shared flanks, not repeated: GGGAGUUCUACAGUCCGACGAUC … UGGAAUUCUCGGGUGCCAA
# Target sequence (chain): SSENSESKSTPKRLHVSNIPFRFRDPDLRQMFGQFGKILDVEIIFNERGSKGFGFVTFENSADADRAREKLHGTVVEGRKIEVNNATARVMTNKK
Oligonucleotide,RBNS enrichment (R)
GGCGUUGGUACACAGGCAAGGAUUGGCACAACCAAAAUUGGCCUUUUUCUCCCUCUUAAUAUUGAAGAAAUUCCCACAUUUCUCAUUUGGUAAUGGUGUUGUGGCCUCAG,0.413
UAAAGUGUAACCAUCAGUUAAACCUCUCCUGUCAUUCCUGGCUUCCUUGCUUCAGAAUUGAAAUGGAAGUGGGGGUGUCCCUACUCUGUAGAAUCUGGGACUGGGCAAAU,0.27
GUGUACCAUCUCUGCCUCCUCUCCUUUGUACCCUGCCUUCUGGCUGUAUGGCUUACAUCCUGGAAAUUACCUGAUAAUAAAGCAAGUAAAGGUGUAAGGUUUCCUAAGGG,0.442
UACAGCCCUUUGUACUUCAAAAUAUGUUUUUGUGUCCAUCAGUAUUAACUAUUGGUAUACUACUGGUUUUAUAUUUUUUUUUCUUUGAGACAACAGUACAUAUAAUAGAG,0.525
UAUAUUUAUAUUCUUAGAUAGUUUGUUCCACAAUUUUUCAUUUCAUGCUUCCAUAUAUAUUACCCUGAACUUUCUAUCACCACAGAUAAAGAUUUUGUUUUGCCCUGCAA,1.21
GAGAUUCUGUUAGAUGAUAUGUCUGACCCAAAUUUAAUCCAUAAUAAAAAAAAAUGGGAGAUUGUUUUCAGGAAUUCAGGGAUGAAAAGAAAGAAUAAUUUCCAUUAAGU,0.687
CAGACCACUGAACAAGUACACGUAUAGGCCUCAAGUAUGCUAUUCCCGUGUGGCUUUAUCCUGUCCCUGCUGUUGCGAGGAAGCUGUGAGGGUACCUUCAGAUGAGAUAC,0.742
CUGCUGGCUCUCCCCCAGCCCCACAUCCCCUCUGGAAGAGAAUGUAAAAUAAACCUGGACACAAGGGACCUUGUCUCUGCGGCCUUUUCCUUGGGGUAGGGGAUGCCUCC,0.398

# Block 4
# Target: Histone acetyltransferase KAT6A, winged helix 2, GST fusion (KAT6A, Homo sapiens, UniProt Q92794, residues 85-181)
# Technique: protein binding microarray
# Form: double-stranded DNA, one strand shown
# Matrix: in vitro
# Tested at: not given
# Notes: 8-mer, flanks averaged, mean of 2 arrays, mostly near background
# Relative to: not given
# Direction: higher = stronger binding
# Target sequence (chain): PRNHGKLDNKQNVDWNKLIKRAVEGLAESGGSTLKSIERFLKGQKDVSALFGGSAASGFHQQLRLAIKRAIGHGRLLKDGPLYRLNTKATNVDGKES
Oligonucleotide,E-score
AAACTGAC,0.00284
CATAGTCG,-0.0607
CTGACGAA,0.0854
AACTTCAT,-0.0419
AATGCGCT,0.0193
GTTCGGAA,0.169
CCCGACAC,0.145
CCCCAAGA,0.00881
AGTGCACC,-0.0588
GCCAGGGA,0.0317
GCCCGTAC,-0.019
ATGGCTAG,-0.145
CTATTCTC,-0.0797
CTTCGACA,-0.0208
ATTCATAG,0.137
GAACCCAA,-0.00853
CTTTCTGC,0.0481
CCGTTGGC,0.0883
CAAGGATC,-0.0451
AAGCCAGT,-0.139
